Published values of several laboratories.
Every numbered part comes from another study and shows a few of its results, in no order.

Study 1
Target: Histone acetyltransferase KAT6A, winged helix 1, GST fusion (KAT6A, Homo sapiens, UniProt Q92794, residues 1-85)
Method: protein binding microarray
Form: double-stranded DNA, one strand shown
Matrix: in vitro
Tested at: not given
Setting: 8-mer, flanks averaged, mean of 2 arrays, mostly near background
Relative to: not given
Reading: higher = stronger binding
Endpoint: E-score
Residues (chain): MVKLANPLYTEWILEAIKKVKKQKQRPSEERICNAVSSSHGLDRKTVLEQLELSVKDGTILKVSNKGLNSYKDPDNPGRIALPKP
GATACCCA: -0.105
GCACGACC: -0.0957
ATAGATAG: -0.206
CGCTTGCC: 0.292
AGGACCGG: 0.087
TAAGACAA: 0.0798
CAGTGATG: -0.139
ACAGAAAT: -0.218
ACATTATA: -0.141
ATCTTCAA: -0.165
TGCGTAAA: 0.189
AGTGACAG: -0.0923
CATATATA: -0.18
ATCGTTAG: -0.0673
TTACCCAA: -0.227
AATTCACC: -0.133
AGGTCTCA: -0.213
ACGTACAA: -0.128
ATGCGTCC: 0.223
AAAATGTT: -0.127
CTCTAGAC: -0.285
ACTGCGAG: -0.0997
ATGCACGC: 0.0821
CGCATGCG: 0.349
CTTAAGTA: -0.0589

Study 2
Target: RNA binding protein fox-1 homolog 2, RRM domain, GST-SBP tag (RBFOX2, Homo sapiens, UniProt O43251-10, residues 100-194)
Method: RNA Bind-n-Seq
Form: RNA
Matrix: in vitro
Tested at: 365 nM
Setting: natural RNA segment, single round, ends assumed
Relative to: no-protein control
Reading: higher = stronger binding
Endpoint: RBNS enrichment (R)
Shared flanks, not repeated: GGGAGUUCUACAGUCCGACGAUC … UGGAAUUCUCGGGUGCCAA
Target sequence (chain): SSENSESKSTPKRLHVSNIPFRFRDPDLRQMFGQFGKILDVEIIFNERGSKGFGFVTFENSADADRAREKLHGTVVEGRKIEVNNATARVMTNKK
AUAAGUUCCUUUCCUUUUCUUUAAAGAAGUUGAAGUUUAGGAAUCCUUUGGUGCCAACUGGUGUUUGAAAGUAGGGACCUCAGAGGUUUACCUAGAGAACAGGUGGUUUU: 0.412
GCCUGCCCUUUCCAGCCUCUUCAAAAGAUGCAUCCAAACAACAGGUCUGCAUUUGAUGUAAUGCCUUAAUUACUGGGGCCACAUUCACGUUGACUGUCUCAGAGACUGUA: 0.342
AUAUAUGUCCUCACAUACCUCUGCUGGAAGGACAGAGCGCUGUCUUAUGACUGGUAAGAGGGAGUGCUCCUGGACCCUGCUCGUGUGCCUUUUUCUACUGUUCAUUUUAU: 0.666
GUGUUACAAGAAAAGGCUGGAAGCAUUUCUACUAAGCGAGGCCCUUUACAGUGACCUCCAGGCAACUGAAGUCAAGAAUCAGGACUCGGGCUUGCUGCAGGAGGCCCACG: 0.466
CACCGUGGCUUCCCUUCUCCCUCCAGGCCAAAGUGCUGCUGAUUCCCACUCCCUUGGUUUUCGCCUGCCCAGCGUUGCUGUUUGCGUGGAGGGUGGGGGGAGCUCAGUGG: 0.49
GGGAAAGGGAAGAGAUGGGGACAGCUGGUCCCAGGAGAUGCAGGCCCUUGCCUUAGGAUCCUGGUGCAGGUCCUAGUUGUUAUCUGCUCAGCCGGAGUUGAGAAGGAGUA: 1.32
AGUGAUAAUCACAGGAAAAGAUGCCUUCUAAAGACUUGGGCAUAAAAGCUUAAAUAUUCUUUCUUUUAAAUGUCUGUUAAGAAUAUGAUGCCAAUGGCUUGAAUUGAGUU: 0.541
UCCCUCAGGCUGGAGCUUAGCUCAGUGCAGCCUCCAACUCCUGGGCUCAAGCAAUCCUCCCACUUUAGCCUCCUGAGUAGCUGGGACUACAGGCGUGUGCCAGCGCGCCU: 0.363
AGUUUCAAGCAUUCCAAAUAAAUUAUCAAUGUUUCAUAACUUUUUAUUAUAAACCCACCUCCUAAUAGGAAGCCAAGUACUAUUUGAUACAGUGGUAAAAACCAAACUAC: 0.432
GGAAUUGCUUUCACUUCAAGACUUUCCUUCUUUUCACUAAAACUCUAGAAGGUGUUACAAGGGGGAGGGAAGGGGGGCAAAGUCCUUGAACAUUUUCUUUGGCUCGUGCC: 0.646
CGUUGUAUAUUUUUGGAAACGUUCUUUAGAAUACAUUUCUGCAUUAUUUGUAUGCUUCCCAGAGAAGCUCAUUUCAUUACAAAAGGCACAUUUUAAAGCCUGCUGAUAAC: 0.644
UGCCGGAGCUGCCCUUCACCUUUGGGGCCCGAGACAGUCAUAAGGGAUGGACUUAGUUUUCUUGCAGGGAAAAAGGUGGACAGCCGUGUUUCUUAAGGAUGCUGAGGGCA: 0.338

Study 3
Target: Interferon regulatory factor 5, full length, phosphomimetic (IRF5, Homo sapiens, UniProt Q13568-2, residues 1-514, S451D/S453D/S456D/S462D)
Method: protein-binding microarray
Form: double-stranded DNA, one strand shown
Matrix: in vitro
Tested at: 940 nM top
Setting: 60-bp whole probe
Together with: salmon DNA 0.4 mg/ml
Relative to: random background probes
Reading: higher = stronger binding
Endpoint: fitted relative affinity
Shared flanks, not repeated: GCCTAGCAC … GTCTTGATTCGCTTGACGCTGCTG
CTAGGTATCGACTATCGGTTAGTGCTA: 5.01 z-score
GGCGGTTTCCTTTCCCTGACGTGCTAG: 2.26 z-score
GACGGACTGAGTTTCGGGACGTGCTAG: 3.42 z-score
TTAGTACTGAGTTTCGATTAGTGCTAG: 7.25 z-score
GACAATATCGGGTTTCGAGACGTGCTA: 1.74 z-score
ATTGGTCTTCACTTGGCAAAGTGCTAG: 0.133 z-score
CCACTCTTGCTTTTTAGATCGTGCTAG: 1.07 z-score
TTAGATATCGGGTTCCGATTAGTGCTA: 0.295 z-score
GACGATATCAGTCCCGAGACGTGCTAG: 0.292 z-score
TTAGGTTTCCTTCCCCTTTAGTGCTAG: 1.66 z-score
GACGGACTTGACTATCGGGACGTGCTA: -0.454 z-score
ATAGGTCTCCTACTGCTTTAGTGCTAG: -0.0223 z-score
TCACTTCTGGGCTGTTTAACTGTGCTA: 0.0283 z-score
TCAAACTTCCCAATGGTACTGTGCTAG: 0.401 z-score
CTTGCTTTTTAGATCGTCCCGTGCTAG: 0.611 z-score
TCAATATCCATTATAGAACTGTGCTAG: 0.612 z-score
TTAGGACTGAGGTATCGGTTAGTGCTA: 2.2 z-score
GACGGTTTCGGTATCCGGACGTGCTAG: 14.9 z-score
GACGGTATCGGGTATGGGGACGTGCTA: 4.58 z-score
TTGGGTTTCGACTATCGGTTAGTGCTA: 7.11 z-score
TTAGGTCTCGGTAGCGGTTAGTGCTAG: 4.35 z-score
GACGGGTCCCTTTTCCTGACGTGCTAG: 0.228 z-score
TTAAGTTTCCTTCTCCTTTAGTGCTAG: 2.2 z-score
GACGAGATCGGGTTTCGAGACGTGCTA: 2.39 z-score
TTCATTTTCTGAATGTCCTCGTGCTAG: 0.53 z-score

Study 4
Target: Ras GTPase-activating protein-binding protein 1, full length (G3BP1, Homo sapiens, UniProt Q13283)
UniProt Q13283, sequence (whole entry, looked up): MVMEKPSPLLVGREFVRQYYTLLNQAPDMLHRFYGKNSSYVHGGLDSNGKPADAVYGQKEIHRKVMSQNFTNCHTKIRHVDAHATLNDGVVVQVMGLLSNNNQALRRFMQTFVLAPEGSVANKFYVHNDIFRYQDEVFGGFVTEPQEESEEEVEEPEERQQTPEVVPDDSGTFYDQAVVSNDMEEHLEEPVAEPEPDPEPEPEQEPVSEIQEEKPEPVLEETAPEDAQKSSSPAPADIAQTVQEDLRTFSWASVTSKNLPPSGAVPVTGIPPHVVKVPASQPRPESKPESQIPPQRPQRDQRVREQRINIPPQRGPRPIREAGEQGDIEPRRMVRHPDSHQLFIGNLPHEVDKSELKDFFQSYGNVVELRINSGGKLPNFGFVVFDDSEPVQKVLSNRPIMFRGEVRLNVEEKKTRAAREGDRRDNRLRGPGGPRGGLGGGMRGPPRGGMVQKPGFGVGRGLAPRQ
Method: RNA Bind-n-Seq
Form: RNA
Matrix: in vitro
Tested at: 200 nM
Setting: whole 134-nt RNA, ends assumed
Together with: 150 mM KCl
Relative to: input library
Reading: higher = stronger binding
Endpoint: log2 enrichment
Shared flanks, not repeated: GGGAGUUCUACAGUCCGACGAUC … UGGAAUUCUCGGGUGUCAAGG
UCCUCAAGUCCUGUGCUACACAUCGUAUGUACCGAAUCGGUGGGGUGGUGGGAAAGUAUUAUGUUACGCCGUUCGGAUCUGCACUUCCAG: 0.461
CAAGUCCUGUGCUACACAUCGUAUGUACCGAAUCGGAAAAGGGGAAAAGGAAAAGGAAAGUAUUAUGUUACGCCGUUCGGAUCUGCACUU: -0.943
GCAGGAAGUAAAAACAAAUGGAAAUGCUUCGGAUAGUGGCAGGGGUGGGGGUUAAAAAGGAAAGGGUGGGAUGGGAGUGGGUAAAGAGUU: 0.998
UAACUUUAGAGGAGGAUCUGAUGGAUAUGGCAGUGGACGUGGAUUUGGGGAUGGCUAUAAUGGGUAUGGAGGAGGACCUGGAGGUUGCAA: 0.0687
UAACUUUAGAGGAGGAUCUGAUGGAUAUGGCAGUGGACGUGGAUUUGGGGAUGGCUAUAAUGGGUAUGGAGGAGGACCUGGAGGUGGCAG: 0.34
UGGGAGGUGGAUUUUGUUUAUUUUUUUAGCUCAUUUCCAGGGGUGGGAAUUUUUUUUUAAUAUGUGUCAUGAAUAAAGUUAUUUUUGAAA: 0.136
CAAGUCCUGUGCUACACAUCGUAUGUACCGAAUCGGGUUUUUUUGGGAGGGAGGGAAAGUAUUAUGUUACGCCGUUCGGAUCUGCACUUC: 0.53
AAGUCCUGUGCUACACAUCGUAUGUACCGAAUCGGAAAGGAAAAAGGUUUUUUUGGAAAGUAUUAUGUUACGCCGUUCGGAUCUGCACUU: -1.64
CCUCAAGUCCUGUGCUACACAUCGUAUGUACCGAAUCGGGCGGGCGGGCGGGAAAGUAUUAUGUUACGCCGUUCGGAUCUGCACUUCCAG: 1.58
UCCUGUGCUACACAUCGUAUGUACCGAAUCGGGAAAAAAAGGGAAAAAAAGGGUUUGGGAAAGUAUUAUGUUACGCCGUUCGGAUCUGCA: -0.353
UGGCCCUGGUGGCAUGCGGGGAGGAAGAGGUGGCCUCAUGGAUCGUGGUGGUCCCGGUGGAAUGUUCAGAGGUGGCCGUGGUGGAGACAG: -0.0749
CCUCAAGUCCUGUGCUACACAUCGUAUGUACCGAAUCGGGAGGGAGGGGAGGAAAGUAUUAUGUUACGCCGUUCGGAUCUGCACUUCCAG: 1.12
CAAGUCCUGUGCUACACAUCGUAUGUACCGAAUCGGGGAGGGGAAAGGGGAGGGGAAAGUAUUAUGUUACGCCGUUCGGAUCUGCACUUC: 1.41
AAGUCCUGUGCUACACAUCGUAUGUACCGAAUCGGGUUUUGGGUUUUGGGGUUUUGGAAAGUAUUAUGUUACGCCGUUCGGAUCUGCACU: -0.686

For quick reference, copied from above (study 1):
ACAGAAAT: -0.218
ACATTATA: -0.141
ATCTTCAA: -0.165
TGCGTAAA: 0.189
AGTGACAG: -0.0923
CATATATA: -0.18
ATCGTTAG: -0.0673
TTACCCAA: -0.227
AATTCACC: -0.133
AGGTCTCA: -0.213
ACGTACAA: -0.128
ATGCGTCC: 0.223
